Measurements gathered from unrelated publications.
Every numbered part comes from another study and shows a few of its results, in no order.
Sequence of UniProt O60674 (whole entry, looked up): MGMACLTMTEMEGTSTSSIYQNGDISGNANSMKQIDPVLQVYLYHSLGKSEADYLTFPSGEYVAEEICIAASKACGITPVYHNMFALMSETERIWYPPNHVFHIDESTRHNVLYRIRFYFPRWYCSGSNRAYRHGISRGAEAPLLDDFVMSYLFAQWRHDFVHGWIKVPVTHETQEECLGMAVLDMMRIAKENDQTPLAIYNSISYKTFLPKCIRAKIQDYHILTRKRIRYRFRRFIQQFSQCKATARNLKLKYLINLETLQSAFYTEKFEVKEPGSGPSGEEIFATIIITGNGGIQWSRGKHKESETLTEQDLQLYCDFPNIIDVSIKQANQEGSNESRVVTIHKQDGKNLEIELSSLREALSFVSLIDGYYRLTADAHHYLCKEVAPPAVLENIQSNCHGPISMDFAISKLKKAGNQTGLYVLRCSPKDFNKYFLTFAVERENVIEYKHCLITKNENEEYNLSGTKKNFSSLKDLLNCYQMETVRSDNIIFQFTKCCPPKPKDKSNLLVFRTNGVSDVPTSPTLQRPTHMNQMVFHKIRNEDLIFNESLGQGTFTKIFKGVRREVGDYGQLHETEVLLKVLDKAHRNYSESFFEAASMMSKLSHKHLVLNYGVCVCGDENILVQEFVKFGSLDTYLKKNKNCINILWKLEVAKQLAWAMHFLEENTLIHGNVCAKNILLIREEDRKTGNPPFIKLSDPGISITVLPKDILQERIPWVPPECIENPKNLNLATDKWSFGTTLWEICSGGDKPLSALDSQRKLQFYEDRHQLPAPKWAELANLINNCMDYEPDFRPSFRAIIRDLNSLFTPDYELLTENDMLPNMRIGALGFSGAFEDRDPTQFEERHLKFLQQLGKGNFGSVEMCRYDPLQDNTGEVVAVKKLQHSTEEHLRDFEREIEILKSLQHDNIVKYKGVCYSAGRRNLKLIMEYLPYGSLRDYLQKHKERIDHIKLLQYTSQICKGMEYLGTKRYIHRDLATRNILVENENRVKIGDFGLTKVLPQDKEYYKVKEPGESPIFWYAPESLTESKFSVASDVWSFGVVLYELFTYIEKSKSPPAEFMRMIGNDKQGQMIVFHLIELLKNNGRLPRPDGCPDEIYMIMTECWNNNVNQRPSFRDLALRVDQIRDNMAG
Sequence of UniProt P53355 (whole entry, looked up): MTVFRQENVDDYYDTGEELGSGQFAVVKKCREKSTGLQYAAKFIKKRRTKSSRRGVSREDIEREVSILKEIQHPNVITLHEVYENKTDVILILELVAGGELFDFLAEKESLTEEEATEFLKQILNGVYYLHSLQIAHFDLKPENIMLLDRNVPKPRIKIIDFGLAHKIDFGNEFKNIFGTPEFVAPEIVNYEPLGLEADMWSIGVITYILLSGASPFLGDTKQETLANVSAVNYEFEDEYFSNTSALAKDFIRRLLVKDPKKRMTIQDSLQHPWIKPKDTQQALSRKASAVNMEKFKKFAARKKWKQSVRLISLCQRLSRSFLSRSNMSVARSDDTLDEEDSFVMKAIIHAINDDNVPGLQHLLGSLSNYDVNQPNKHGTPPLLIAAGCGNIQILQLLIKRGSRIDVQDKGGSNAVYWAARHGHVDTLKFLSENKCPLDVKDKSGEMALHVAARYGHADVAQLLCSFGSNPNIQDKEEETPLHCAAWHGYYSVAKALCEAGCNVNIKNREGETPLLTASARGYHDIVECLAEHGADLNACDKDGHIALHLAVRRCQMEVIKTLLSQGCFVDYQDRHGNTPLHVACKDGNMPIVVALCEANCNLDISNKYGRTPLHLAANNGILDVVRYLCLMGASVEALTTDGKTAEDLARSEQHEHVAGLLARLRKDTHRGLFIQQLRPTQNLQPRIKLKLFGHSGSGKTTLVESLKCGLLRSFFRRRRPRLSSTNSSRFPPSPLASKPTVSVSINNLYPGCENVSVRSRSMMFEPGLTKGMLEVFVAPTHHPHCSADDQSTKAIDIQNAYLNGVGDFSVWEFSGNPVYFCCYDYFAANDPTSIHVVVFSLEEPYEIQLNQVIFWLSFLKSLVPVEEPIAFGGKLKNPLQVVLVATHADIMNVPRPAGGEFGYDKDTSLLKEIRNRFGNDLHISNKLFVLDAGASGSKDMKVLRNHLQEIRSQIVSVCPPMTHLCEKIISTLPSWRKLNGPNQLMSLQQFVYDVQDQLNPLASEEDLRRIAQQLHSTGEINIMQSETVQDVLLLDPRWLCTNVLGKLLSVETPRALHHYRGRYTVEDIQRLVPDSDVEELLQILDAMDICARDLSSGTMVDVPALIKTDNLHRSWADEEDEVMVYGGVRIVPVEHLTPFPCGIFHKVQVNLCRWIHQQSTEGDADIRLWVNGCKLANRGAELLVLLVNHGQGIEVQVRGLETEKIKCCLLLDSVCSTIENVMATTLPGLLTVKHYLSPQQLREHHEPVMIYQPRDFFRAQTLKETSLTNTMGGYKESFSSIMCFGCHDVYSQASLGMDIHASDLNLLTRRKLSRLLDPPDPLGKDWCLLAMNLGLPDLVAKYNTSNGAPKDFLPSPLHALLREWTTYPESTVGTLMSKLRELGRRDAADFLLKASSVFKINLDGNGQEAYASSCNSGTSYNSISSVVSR
Sequence of UniProt Q9H4B4 (whole entry, looked up): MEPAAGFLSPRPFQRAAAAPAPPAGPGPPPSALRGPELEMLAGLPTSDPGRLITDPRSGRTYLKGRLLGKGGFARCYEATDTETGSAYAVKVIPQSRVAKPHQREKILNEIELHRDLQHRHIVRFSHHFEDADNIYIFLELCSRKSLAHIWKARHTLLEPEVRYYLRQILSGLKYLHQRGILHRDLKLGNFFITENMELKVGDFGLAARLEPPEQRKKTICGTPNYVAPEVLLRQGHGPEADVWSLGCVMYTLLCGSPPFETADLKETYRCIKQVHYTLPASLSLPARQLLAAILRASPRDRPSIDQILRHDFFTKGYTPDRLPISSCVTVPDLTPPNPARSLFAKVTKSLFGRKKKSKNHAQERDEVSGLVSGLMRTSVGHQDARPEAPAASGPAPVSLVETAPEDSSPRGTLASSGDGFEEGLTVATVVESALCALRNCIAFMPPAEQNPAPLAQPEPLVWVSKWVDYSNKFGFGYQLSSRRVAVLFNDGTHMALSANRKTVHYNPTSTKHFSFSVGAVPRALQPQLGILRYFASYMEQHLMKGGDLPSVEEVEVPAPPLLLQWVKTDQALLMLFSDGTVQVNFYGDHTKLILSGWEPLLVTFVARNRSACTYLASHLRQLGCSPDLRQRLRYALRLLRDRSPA
Sequence of UniProt Q9Y6M4 (whole entry, looked up): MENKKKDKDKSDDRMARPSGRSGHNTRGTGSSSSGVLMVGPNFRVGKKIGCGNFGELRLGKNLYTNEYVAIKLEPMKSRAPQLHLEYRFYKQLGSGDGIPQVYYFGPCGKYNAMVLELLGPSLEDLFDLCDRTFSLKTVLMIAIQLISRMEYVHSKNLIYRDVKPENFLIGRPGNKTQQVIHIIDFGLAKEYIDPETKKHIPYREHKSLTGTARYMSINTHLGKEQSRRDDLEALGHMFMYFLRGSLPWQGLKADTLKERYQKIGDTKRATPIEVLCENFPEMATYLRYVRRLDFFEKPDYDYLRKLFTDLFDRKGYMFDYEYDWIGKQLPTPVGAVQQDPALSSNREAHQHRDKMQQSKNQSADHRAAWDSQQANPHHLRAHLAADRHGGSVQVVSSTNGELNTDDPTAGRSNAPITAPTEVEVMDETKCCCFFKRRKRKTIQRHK
Sequence of UniProt P31751 (whole entry, looked up): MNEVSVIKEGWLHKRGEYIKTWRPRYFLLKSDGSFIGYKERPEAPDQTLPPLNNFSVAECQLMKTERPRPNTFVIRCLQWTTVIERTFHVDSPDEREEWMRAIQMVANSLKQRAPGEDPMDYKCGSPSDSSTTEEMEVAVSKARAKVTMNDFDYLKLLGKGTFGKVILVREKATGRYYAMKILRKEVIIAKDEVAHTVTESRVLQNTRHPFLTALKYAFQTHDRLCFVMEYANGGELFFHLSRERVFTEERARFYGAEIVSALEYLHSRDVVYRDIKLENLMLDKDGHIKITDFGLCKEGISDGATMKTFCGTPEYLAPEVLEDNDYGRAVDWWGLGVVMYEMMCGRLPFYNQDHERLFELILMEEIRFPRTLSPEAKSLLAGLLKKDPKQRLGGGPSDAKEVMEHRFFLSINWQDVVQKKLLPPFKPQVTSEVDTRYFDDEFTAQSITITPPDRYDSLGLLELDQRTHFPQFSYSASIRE
Sequence of UniProt P50750 (whole entry, looked up): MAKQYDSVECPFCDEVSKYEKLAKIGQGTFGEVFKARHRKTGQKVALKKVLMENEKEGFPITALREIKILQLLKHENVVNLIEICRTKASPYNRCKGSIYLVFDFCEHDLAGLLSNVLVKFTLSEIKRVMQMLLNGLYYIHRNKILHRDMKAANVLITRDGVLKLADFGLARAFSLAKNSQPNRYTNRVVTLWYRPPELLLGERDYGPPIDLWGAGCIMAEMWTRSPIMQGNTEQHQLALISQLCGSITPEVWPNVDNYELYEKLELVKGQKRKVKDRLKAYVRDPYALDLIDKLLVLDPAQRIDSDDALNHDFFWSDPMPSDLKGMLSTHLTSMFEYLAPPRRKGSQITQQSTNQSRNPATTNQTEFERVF
Sequence of UniProt P51956 (whole entry, looked up): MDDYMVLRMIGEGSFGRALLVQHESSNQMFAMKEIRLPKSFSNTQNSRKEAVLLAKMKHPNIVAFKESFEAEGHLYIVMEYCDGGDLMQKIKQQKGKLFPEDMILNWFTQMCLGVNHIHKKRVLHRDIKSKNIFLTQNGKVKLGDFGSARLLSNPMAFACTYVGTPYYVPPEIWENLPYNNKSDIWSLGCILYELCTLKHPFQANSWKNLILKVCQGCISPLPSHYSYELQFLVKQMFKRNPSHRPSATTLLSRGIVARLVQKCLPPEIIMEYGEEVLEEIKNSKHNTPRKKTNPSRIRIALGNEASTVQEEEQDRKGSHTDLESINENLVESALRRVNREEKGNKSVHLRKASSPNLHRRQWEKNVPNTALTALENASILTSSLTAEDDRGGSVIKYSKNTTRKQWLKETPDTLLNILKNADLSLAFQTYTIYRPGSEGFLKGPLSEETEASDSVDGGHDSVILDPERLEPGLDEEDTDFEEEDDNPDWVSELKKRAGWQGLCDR

Block 1
Compound: Clc1ccc(Nc2nnc(Cc3ccncc3)c3ccccc23)cc1
Effect on: enzyme activity
Action: inhibitor
Concentration: 0.5 µM
Reference: control
| target | remaining activity |
| --- | --- |
| PLK3 (Homo sapiens, UniProt Q9H4B4) | 100% |
| DCLK2 (Homo sapiens, UniProt Q8N568) | 100% |
| NEK3 (Homo sapiens, UniProt P51956) | 94.1% |
| MAPK14 (Homo sapiens, UniProt Q16539) | 98.2% |
| AKT2 (Homo sapiens, UniProt P31751) | 104% |
| PNCK (Homo sapiens, UniProt Q6P2M8) | 103% |
| CLK4 (Homo sapiens, UniProt Q9HAZ1) | 108% |
| Cyclin-dependent kinase 1, with cyclin A (CDK1, Homo sapiens, UniProt P06493) | 105% |
| MINK1 (Homo sapiens, UniProt Q8N4C8) | 104% |
| MARK2 (Homo sapiens, UniProt Q7KZI7) | 133% |
| Myosin-IIIb (MYO3B, Homo sapiens, UniProt Q8WXR4) | 102% |
| PRKG2 (Homo sapiens, UniProt Q13237) | 101% |
| DDR2 (Homo sapiens, UniProt Q16832) | 97.1% |
| GRK4 (Homo sapiens, UniProt P32298) | 91.3% |
| Cyclin-dependent kinase 9, with cyclin K (CDK9, Homo sapiens, UniProt P50750) | 104% |
| MAP2K1 (Homo sapiens, UniProt Q02750) | 100% |
| TXK (Homo sapiens, UniProt P42681) | 110% |
| ROCK1 (Homo sapiens, UniProt Q13464) | 110% |
| MARK4 (Homo sapiens, UniProt Q96L34) | 104% |
| MET (Homo sapiens, UniProt P08581) | 94% |
| TLK2 (Homo sapiens, UniProt Q86UE8) | 102% |
| MAPK11 (Homo sapiens, UniProt Q15759) | 96.9% |
| CDC42BPB (Homo sapiens, UniProt Q9Y5S2) | 99.5% |
| MAPK1 (Homo sapiens, UniProt P28482) | 87.6% |

Block 2
SMILES: C[C@@H]1CN(c2cc(-c3n[nH]c4ccc(OC5(C)CC5)cc34)ncn2)C[C@H](C)O1
Effect on: cell-free assay
Technique: competition with immobilised ligand
Concentration: 0.1 µM
| target | remaining binding [%] |
| --- | --- |
| WNK4 (Homo sapiens, UniProt Q96J92) | 94 |
| GRK7 (Homo sapiens, UniProt Q8WTQ7) | 64 |
| Insulin receptor (INSR, Homo sapiens, UniProt P06213) | 100 |
| DAPK1 (Homo sapiens, UniProt P53355) | 93 |
| STK35 (Homo sapiens, UniProt Q8TDR2) | 85 |
| CDK8 (Homo sapiens, UniProt P49336) | 63 |
| CLK3 (Homo sapiens, UniProt P49761) | 94 |
| Tyrosine-protein kinase JAK2, JH1 (JAK2, Homo sapiens, UniProt O60674) | 77 |
| CSNK1G3 (Homo sapiens, UniProt Q9Y6M4) | 95 |
| SBK3 (Homo sapiens, UniProt P0C264) | 100 |

Block 3
Organism: Plasmodium berghei
Action: inhibitor
Cell line: Huh-7
Strain: GFP-expressing sporozoites, liver stage
Concentration: 10 µM
Time: 24 h
Reference: untreated control
| Structure (SMILES) | infection rate [%] |
| --- | --- |
| CN(C)CCCN1c2ccccc2Sc2ccc(Cl)cc21 | 79.1 |
| CC[N+](CC)(CC(=O)Nc1c(C)cccc1C)Cc1ccccc1 | 86.7 |
| CC(=O)N(O)CCCCCNC(=O)CCC(=O)N(O)CCCCCNC(=O)CCC(=O)N(O)CCCCCN | 39.6 |
| NC12CC3CC(CC(C3)C1)C2 | 86.5 |
| CCN(CC)Cc1cc(Nc2ccnc3cc(Cl)ccc23)ccc1O | 46 |
| CO[C@@]1(NC(=O)Cc2cccs2)C(=O)N2C(C(=O)O)=C(COC(N)=O)CS[C@@H]21 | 127 |
| c1ccc(CN(CC2=NCCN2)c2ccccc2)cc1 | 83.6 |
| C[C@H]1c2cccc(O)c2C(=O)C2=C(O)[C@]3(O)C(=O)C(C(N)=O)=C(O)[C@@H](N(C)C)[C@@H]3[C@@H](O)[C@@H]21 | 20 |
| C[N+](C)(C)CC(=O)O | 103 |
| C[C@@H]1CC2C3CCC4=CC(=O)C=C[C@]4(C)[C@@]3(F)[C@@H](O)C[C@]2(C)[C@H]1C(=O)CO (some centres unmarked) | 113 |

Block 4
Species: human
Medium: microsomes or S9
Concentration: 2 µM
Time: 0.5 h
| SMILES | remaining compound |
| --- | --- |
| O=C(c1cn2cc(Cl)ccc2n1)N1CCC(c2ccc(Cc3ccccc3F)cn2)CC1 | 44.5% |
| Cc1cc(N2CCCC2c2cc(C)on2)nc(N)n1 (centres unmarked) | 94.3% |
| Cc1ccc(C(=O)N2CCN(C(=O)c3ccc(C)cc3)C2)cc1 | 68.2% |
| O=C(O)c1ccc(-c2noc3ccc(-c4ccc(O)cc4)cc23)cc1 | 72.5% |
| Cc1nc2c3ccccc3nn2c(C)c1CC(=O)NCCc1c[nH]cn1 | > 100% |
| N#Cc1cnn(-c2nnc(-c3ccccc3)c(-c3ccccc3)n2)c1N | 81.8% |
| CCOc1cc(=O)n2c(c1C(=O)NCc1cccc(F)c1)CCCCC2 | 54.8% |
| CC(C)Oc1ccc(C(=O)O)cc1NC(=O)c1cccn1C | 80.5% |
| OCCNc1nc(Nc2ccc(Cl)cc2)c2nc[nH]c2n1 | 51.8% |

Repeated from above (block 2):
| target | remaining binding [%] |
| --- | --- |
| Insulin receptor (INSR, Homo sapiens, UniProt P06213) | 100 |
| CDK8 (Homo sapiens, UniProt P49336) | 63 |
| WNK4 (Homo sapiens, UniProt Q96J92) | 94 |
| Tyrosine-protein kinase JAK2, JH1 (JAK2, Homo sapiens, UniProt O60674) | 77 |
| CSNK1G3 (Homo sapiens, UniProt Q9Y6M4) | 95 |
| SBK3 (Homo sapiens, UniProt P0C264) | 100 |
